Results of several laboratories.
Each line is one published result; not all experiments were run side by side. ± gives the spread as reported.
rep main protease: Replicase polyprotein 1ab, main protease (rep, Severe acute respiratory syndrome coronavirus 2, UniProt P0DTD1)

Substance | tested on | assay | system | setting | how to read | measurement | value
CC(C)(C#Cc1ccc(-c2ccc(Cl)c3c(NS(C)(=O)=O)nn(CC(F)(F)F)c23)c([C@H](CC2CCCCC2)NC(=O)Cn2nc(C(F)(F)F)c3c2C(F)(F)[C@H]2C[C@@H]32)n1)S(C)(=O)=O | HIV-1 | viral replication |  |  |  | EC50 | 203 ± 49 nM
Nc1c(C(=O)NCc2ccc(F)cc2F)c(=O)n(O)c2ncc(CCCO)cc12 | HIV-1 | viral replication, single-round infectivity | integrase G140S/Q148H |  |  | EC50 | 13.4 ± 6.5 nM
Cc1cc(/C=C/C#N)cc(C)c1-n1cnc2cnc(Nc3ccc4cc(C#N)ccc4c3)nc21 | HIV-1 | viral replication, single-round infection | RT mutant V106A/F227L/L234I |  |  | EC50 | 13.1 ± 0.7 nM
O=C(O)CCC(=O)C(=O)O | rep main protease | reporter gene (Gaussia luciferase), inhibitor |  | 20 µM |  | inhibition | 1.4%
Nc1c(C(=O)NCc2ccc(F)cc2F)c(=O)n(O)c2ncc(CCS(=O)(=O)c3ccccc3)cc12 | HIV-1 | viral replication, single-round infectivity | integrase G140S/Q148H |  |  | EC50 | 5.2 ± 0.3 nM
CC[C@H](C)[C@H](NC(=O)[C@H](CC(C)C)NC(=O)[C@H](Cc1c[nH]c2ccccc12)NC(=O)[C@H](CCC(N)=O)NC(=O)[C@@H](NC(=O)[C@H](Cc1ccccc1)NC(=O)[C@H](C)NC(=O)[C@H](CCCCNC(=O)COCCOCCNC(=O)COCCOCCNC(=O)CC[C@H](NC(=O)CCCCCCCCCCCCCCCCCCC(=O)O)C(=O)O)NC(=O)[C@H](CCC(N)=O)NC(=O)[C@H](C)NC(=O)[C@@H](NC(=O)[C@H](CCCCN)NC(=O)[C@H](CC(=O)O)NC(=O)[C@H](CC(C)C)NC(=O)C(C)(C)NC(=O)[C@@H](NC(=O)[C@H](CO)NC(=O)[C@H](Cc1ccc(O)cc1)NC(=O)[C@H](CC(=O)O)NC(=O)[C@H](CO)NC(=O)[C@@H](NC(=O)[C@H](Cc1ccccc1)NC(=O)[C@@H](NC(=O)CNC(=O)[C@H](CCC(=O)O)NC(=O)C(C)(C)NC(=O)[C@@H](N)Cc1ccc(O)cc1)[C@@H](C)O)[C@@H](C)O)[C@@H](C)CC)[C@@H](C)CC)C(C)C)C(=O)N[C@@H](C)C(=O)NCC(=O)NCC(=O)N1CCC[C@H]1C(=O)N[C@@H](CO)C(=O)N[C@@H](CO)C(=O)NCC(=O)N[C@@H](C)C(=O)N1CCC[C@H]1C(=O)N1CCC[C@H]1C(=O)N1CCC[C@H]1C(=O)N[C@@H](CO)C(N)=O |  |  | healthy human | 2.5 mg, single ascending dose |  | severe hypoglycaemia | 0%
NC(=O)CCNC(=O)c1ccccc1S | HIV-1 | viral replication | human PBMC, subtype F 93BR020, dual-tropic clinical isolate |  |  | EC50 | 3460 ± 1850 nM
CNC(=O)[C@@H](NC(=O)[C@H](CC(C)C)[C@H](O)C(=O)NO)C(C)(C)C | rep main protease | reporter gene (mKate2), inhibitor |  | 20 µM |  | inhibition | -0.586%
O=C1Nc2ccc(Cl)cc2[C@@](C#CC2CC2)(C(F)(F)F)O1 | HIV-1 | viral replication | MT4, RES056 K103N+Y181C |  |  | EC50 | 186 ± 22.4 nM
Cc1cc(/C=C/C#N)cc(C)c1-n1cnc2cnc(Nc3ccc(/C=C/C#N)cc3)nc21 | HIV-1 | viral replication, single-round infection | RT mutant K101P/V179I |  |  | EC50 | 552 ± 86.7 nM
Nc1c(C(=O)NCc2ccc(F)cc2F)c(=O)n(O)c2ncc(CCCCCCO)cc12 | HIV-1 | viral replication, single-round infectivity | integrase G140S/Q148H |  |  | EC50 | 9.4 ± 3.6 nM
delavirdine | HIV-1 | viral replication | MT-2, Y181C, NNRTI-resistant |  |  | EC50 | > 3700 nM
Cc1cc(/C=C/C#N)cc(C)c1Nc1nc(Nc2ccc(/C=C/C#N)cc2)ncc1N | HIV-1 | viral replication, single-round infection | RT mutant K101P |  |  | EC50 | > 100 nM
CC(C)(C#Cc1ccc(-c2ccc(Cl)c3c(NS(C)(=O)=O)nn(CC(F)(F)F)c23)c([C@H](CC2CC2)NC(=O)Cn2nc(C(F)(F)F)c3c2C(F)(F)[C@@H]2C[C@H]32)n1)S(C)(=O)=O | HIV-1 | viral replication |  |  |  | EC50 | 15.7 ± 12 nM
Cc1cc(/C=C/C#N)cc(C)c1Nc1nc(Nc2ccc3cc(C#N)ccc3c2)ncc1N | HIV-1 | viral replication, single-round infection | RT mutant K101P/V179I |  |  | EC50 | 308 ± 56.6 nM
Cc1cn([C@H]2C[C@H](N=[N+]=[N-])[C@@H](CO)O2)c(=O)[nH]c1=O | HIV-1 | viral replication | human PBMC, subtype B 92BR014, dual-tropic clinical isolate |  |  | EC50 | 2.49 ± 0.22 nM
CNC(=O)[C@@H](NC(=O)[C@H](CC(C)C)[C@H](O)C(=O)NO)C(C)(C)C | C2C12 |  |  | 10 µM, added: KA venom | reference: venom alone | viability difference | 42.7%
O=C1Nc2ccc(Cl)cc2[C@@](C#CC2CC2)(C(F)(F)F)O1 | HIV-1 | viral replication, single-round infection | RT mutant V106A |  |  | EC50 | 1.2 ± 0.2 nM
CC(C)(C#Cc1ccc(-c2ccc(Cl)c3c(NS(C)(=O)=O)nn(CC(F)(F)F)c23)c([C@@H](CC2CCCC2)NC(=O)Cn2nc(C(F)(F)F)c3c2C(F)(F)[C@H]2C[C@@H]32)n1)S(C)(=O)=O | HIV-1 | viral replication |  |  |  | EC50 | 4000 ± 90 nM
Cn1c(Cn2ccc(C(F)(F)F)c(Oc3cc(Cl)cc(C#N)c3)c2=O)n[nH]c1=O | HIV-1 | viral replication, single-round infection | RT mutant P236L |  |  | EC50 | 2 ± 0.7 nM
Cn1cnc(Cn2c(=O)[nH]/c(=N\c3cc4cn(C)nc4cc3Cl)n(Cc3cc(F)c(F)cc3F)c2=O)n1 |  |  | human, all renal function groups | oral, 375 mg |  | dry mouth TEAE, Severe severity | 0%
CCCC(=O)OCSc1ccccc1C(=O)NCCC(N)=O | HIV-1 | viral replication | human PBMC, subtype D 92UG024, CXCR4-tropic clinical isolate |  |  | EC50 | 1320 ± 830 nM
CC(C)(C#Cc1ccc(-c2ccc(Cl)c3c(NS(C)(=O)=O)nn(CC(F)(F)F)c23)c([C@H](Cc2cc(F)cc(F)c2)NC(=O)Cn2nc(C(F)(F)F)c3c2C(F)(F)[C@@H]2C[C@H]32)n1)S(C)(=O)=O | HIV-1 | viral replication |  |  |  | EC50 | > 15000 nM
Nc1ncnc2c([C@@H]3N[C@H](CO)[C@@H](O)[C@H]3O)c[nH]c12 | Marburg virus | viral replication | HeLa, Musoke | 0.8 µM |  | inhibition | 23%

For quick reference, copied from above:
Substance | tested on | assay | system | setting | how to read | measurement | value
Nc1c(C(=O)NCc2ccc(F)cc2F)c(=O)n(O)c2ncc(CCCCCCO)cc12 | HIV-1 | viral replication, single-round infectivity | integrase G140S/Q148H |  |  | EC50 | 9.4 ± 3.6 nM
delavirdine | HIV-1 | viral replication | MT-2, Y181C, NNRTI-resistant |  |  | EC50 | > 3700 nM
Cc1cc(/C=C/C#N)cc(C)c1Nc1nc(Nc2ccc(/C=C/C#N)cc2)ncc1N | HIV-1 | viral replication, single-round infection | RT mutant K101P |  |  | EC50 | > 100 nM
